Results gathered from unrelated publications.
Protocols differ between the studies behind these lines. ± gives the spread as reported.

Compound | assay | system | setting | tissue uptake
CCCC[C@H](NC(=O)CNC(=O)CNC(=O)CN1CCN(CC(=O)O)CCN(CC(=O)O)CCN(CC(=O)O)CC1)C(=O)N[C@H]1CC(=O)NCCCC[C@@H](C(N)=O)NC(=O)[C@H](Cc2c[nH]c3ccccc23)NC(=O)[C@H](CCCNC(=N)N)NC(=O)[C@@H](Cc2ccccc2)NC(=O)[C@H](Cc2c[nH]cn2)NC1=O [copper-64 labelled] |  | female C57 mouse, B16/F1 melanoma, kidneys | intravenous, 0.037 MBq, 0.5 h | 14.4 ± 1.85 %ID/g
CN(C)c1ccc(-c2nc3ccc(OCCCCCN4CCN5CCN(CC4)CC(=O)[O][Al]([18F])[O]C(=O)C5)cc3s2)cc1 |  | ICR mouse, pancreas | intravenous, 30 min | 1.2 ± 0.2 %ID/g
NC12CNCCNCC(NCc3ccc(CNC(=O)CCCC(=O)NCc4ccc(-c5nncnn5)cc4)cc3)(CNCCNC1)CNCCNC2.[64Cu+2] |  | athymic nude mice, SW1222 xenograft, stomach with contents | 4 h, pretargeting with huA33-TCO, 24 h interval | 0.56 ± 0.2 %ID/g
CCCC[C@H](NC(=O)CNC(=O)CNC(=O)CN1CCN(CC(=O)O)CCN(CC(=O)O)CC1)C(=O)N[C@H]1CC(=O)NCCCC[C@@H](C(N)=O)NC(=O)[C@H](Cc2c[nH]c3ccccc23)NC(=O)[C@H](CCCNC(=N)N)NC(=O)[C@@H](Cc2ccccc2)NC(=O)[C@H](Cc2c[nH]cn2)NC1=O [gallium-67 labelled] |  | female C57 mice, B16/F1 melanoma, stomach | intravenous, 0.037 MBq, 4 h | 1.45 ± 0.23 %ID/g
CC(C)[C@H](NC(=O)[C@@H]1CCCN1C(=O)[C@H](CCCNC(=N)N)NC(=O)[C@H](CS)NC(=O)[C@H](Cc1c[nH]c2ccccc12)NC(=O)[C@H](CCCNC(=N)N)NC(=O)[C@@H](Cc1ccccc1)NC(=O)[C@H](Cc1c[nH]cn1)NC(=O)[C@H](CCC(=O)O)NC(=O)[C@H](CS)NC(=O)[C@H](CS)NC(=O)CNC(=O)[C@@H]1CC(=O)N[C@@H](CCCNC(=N)N)C(=O)NCC(=O)N[C@@H](CC(=O)O)C(=O)N[C@H](Cc2ccc(O)cc2)C(=O)N1)C(N)=O [technetium-99m labelled] |  | C57 mouse, female, B16/F1 melanoma, muscle | intravenous, 0.037 MBq, 2 h | 0.57 ± 0.29 %ID/g
O=C([O-])CN1CCN(CC(=O)[O-])CCN(CC(=O)NCCc2ccc3c(c2)C2C=CCC2C(c2cc4c(cc2Br)OCO4)N3)CCN(CC(=O)[O-])CC1.[111In+3] (stereo not shown) |  | mouse, Hec50 endometrial tumour, large intestine | 4 h post injection | 8.48 ± 0.67 %ID/g
O=C(O)C1CN(Cc2ccc(-c3noc(-c4ccc(OCC[18F])c(C(F)(F)F)c4)n3)cc2)C1 |  | Sprague-Dawley rat, male, normal, fat | iv, 120 min | 0.059 ± 0.011 %ID/g
O=C([O-])c1cccc(CN(CCN(Cc2cn(Cc3ccccc3)nn2)Cc2cccc(C(=O)[O-])n2)Cc2cn(Cc3ccccc3)nn2)n1.[64Cu+2] |  | healthy athymic nude mice, liver | intravenous, 4 h | 12.4 %ID/g
CC(C)[C@H](NC(=O)[C@@H]1CCCN1C(=O)[C@H](CCCNC(=N)N)NC(=O)[C@H](CS)NC(=O)[C@H](Cc1c[nH]c2ccccc12)NC(=O)[C@H](CCCNC(=N)N)NC(=O)[C@@H](Cc1ccccc1)NC(=O)[C@H](Cc1c[nH]cn1)NC(=O)[C@H](CCC(=O)O)NC(=O)[C@H](CS)NC(=O)[C@H](CS)NC(=O)[C@@H]1CC(=O)N[C@@H](CCCNC(=N)N)C(=O)NCC(=O)N[C@@H](CC(=O)O)C(=O)N[C@H](Cc2ccc(O)cc2)C(=O)N1)C(N)=O [technetium-99m labelled] |  | C57 mouse, female, B16/F1 melanoma, heart | intravenous, 0.037 MBq, 24 h | 0.08 ± 0.03 %ID/g
CCCC[C@H](NC(=O)CNC(=O)CNC(=O)CN1CCN(CC(=O)O)CCN(CC(=O)O)CC1)C(=O)N[C@H]1CC(=O)NCCCC[C@@H](C(N)=O)NC(=O)[C@H](Cc2c[nH]c3ccccc23)NC(=O)[C@H](CCCNC(=N)N)NC(=O)[C@@H](Cc2ccccc2)NC(=O)[C@H](Cc2c[nH]cn2)NC1=O [copper-64 labelled] |  | female C57 mouse, B16/F1 melanoma, lung | intravenous, 0.037 MBq, 0.5 h | 2.05 ± 0.26 %ID/g
CCCC[C@@H]1NC(=O)[C@@H](NC(=O)[C@H](CCC(=O)O)NC(=O)CNC(=O)CN2CCN(CC(=O)O)CCN(CC(=O)O)CCN(CC(=O)O)CC2)CCCCNC(=O)C[C@@H](C(N)=O)NC(=O)[C@H](C(C)C)NC(=O)[C@@H]2CCCN2C(=O)[C@H](CCCNC(=N)N)NC(=O)CNC(=O)[C@H](Cc2c[nH]c3ccccc23)NC(=O)[C@H](CCCNC(=N)N)NC(=O)[C@@H](Cc2ccccc2)NC(=O)[C@H](Cc2c[nH]cn2)NC(=O)[C@H](CCC(=O)O)NC1=O [gallium-67 labelled] |  | normal C57 mice, skin | intravenous, 0.037 MBq/mouse, 4 h | 0.46 ± 0.15 %ID/g
C[C@H](CN(C)Cc1ccccc1)NC(=O)c1ccc(-c2noc(C(F)(F)[18F])n2)cc1 | PET imaging | female Sprague-Dawley rats, muscle | intravenous, 60 min | 0.59 ± 0.15 SUV
CCCC[C@H](NC(=O)CNC(=O)CNC(=O)CN1CCN(CC(=O)O)CCN(CC(=O)O)CCN(CC(=O)O)CC1)C(=O)N[C@H]1CC(=O)NCCCC[C@@H](C(N)=O)NC(=O)[C@H](Cc2c[nH]c3ccccc23)NC(=O)[C@H](CCCNC(=N)N)NC(=O)[C@@H](Cc2ccccc2)NC(=O)[C@H](Cc2c[nH]cn2)NC1=O [lead-203 labelled] |  | C57 mouse, brain | intravenous, 0.056 MBq, 24 h | 0.01 ± 0.02 %ID/g

Some of these lines once more:
Compound | assay | system | setting | tissue uptake
CCCC[C@H](NC(=O)CNC(=O)CNC(=O)CN1CCN(CC(=O)O)CCN(CC(=O)O)CC1)C(=O)N[C@H]1CC(=O)NCCCC[C@@H](C(N)=O)NC(=O)[C@H](Cc2c[nH]c3ccccc23)NC(=O)[C@H](CCCNC(=N)N)NC(=O)[C@@H](Cc2ccccc2)NC(=O)[C@H](Cc2c[nH]cn2)NC1=O [copper-64 labelled] |  | female C57 mouse, B16/F1 melanoma, lung | intravenous, 0.037 MBq, 0.5 h | 2.05 ± 0.26 %ID/g
CCCC[C@@H]1NC(=O)[C@@H](NC(=O)[C@H](CCC(=O)O)NC(=O)CNC(=O)CN2CCN(CC(=O)O)CCN(CC(=O)O)CCN(CC(=O)O)CC2)CCCCNC(=O)C[C@@H](C(N)=O)NC(=O)[C@H](C(C)C)NC(=O)[C@@H]2CCCN2C(=O)[C@H](CCCNC(=N)N)NC(=O)CNC(=O)[C@H](Cc2c[nH]c3ccccc23)NC(=O)[C@H](CCCNC(=N)N)NC(=O)[C@@H](Cc2ccccc2)NC(=O)[C@H](Cc2c[nH]cn2)NC(=O)[C@H](CCC(=O)O)NC1=O [gallium-67 labelled] |  | normal C57 mice, skin | intravenous, 0.037 MBq/mouse, 4 h | 0.46 ± 0.15 %ID/g
